{"data": "Experimental data of several laboratories", "note": "± marks the error that the study gave."}
{"SMILES": "CC(=O)[O-].O.O.O.O.[Co+2].[O-]c1ccc(Br)cc1C=NCCN1CCOCC1", "test": "FRAP", "setting": "40 µM", "measurement": "ferric reducing power", "value": "10.6%"}
{"SMILES": "CC(C)(C)c1cc(-c2ccc3cccnc3n2)nc(-c2ccc3cccnc3n2)c1.COc1ccncc1.[Cl-].[Cl-].[Ru+2].c1ccc2cc3nc4c5cccnc5c5ncccc5c4nc3cc2c1", "tested on": "B16-F10", "test": "resazurin", "setting": "added: light 733 nm, 100 J/cm2", "scale": "baseline: dark EC50 over light EC50", "measurement": "phototoxicity index", "value": 39}
{"SMILES": "C=CC(=O)N1[C@@H](c2ccc3c(c2)OCO3)c2[nH]c3ccccc3c2C[C@H]1C(=O)N1CCN(C)CC1", "tested on": "CCNE1 WT-3xFLAG:CDK2 complex", "test": "co-IP TMT proteomics, refers to: ELP5", "test system": "HEK-293T", "setting": "20 µM, 6 h", "scale": "baseline: DMSO", "measurement": "log2 fold change", "value": -0.2}
{"SMILES": "CC[n+]1cccc2cc(/C=N/NC(=O)c3ccc4ccc(C(=O)N/N=C/c5ccc6c(ccc[n+]6CC)c5)nc4n3)ccc21", "tested on": "telomeric G4 DNA hybrid-2", "test": "FRET melting", "setting": "1 µM, DNA 0.2 µM, added: duplex DNA competitor 10 µM", "measurement": "ΔTm", "value": "16.9 ± 1.5 °C"}
{"SMILES": "N=C(N)NCCC[C@@H]1NC(=O)[C@H](CCCNC(=N)N)NC(=O)[C@@H](C(c2ccccc2)c2ccccc2)NC(=O)[C@H](Cc2c[nH]c3ccccc23)NC(=O)[C@@H](C(c2ccccc2)c2ccccc2)NC(=O)[C@@H](CCCNC(=N)N)NC(=O)[C@@H](CCCNC(=N)N)NC1=O", "tested on": "Aspergillus fumigatus", "test": "XTT", "test system": "Af 293", "setting": "2 × MIC, 24 h, pre-formed biofilm", "measurement": "biofilm reduction", "value": "69 to 73%"}
{"SMILES": "O=C(N/N=C/c1ccc2c(ccc[n+]2Cc2ccccc2)c1)c1cccc(C(=O)N/N=C/c2ccc3c(ccc[n+]3Cc3ccccc3)c2)c1", "tested on": "telomeric G4 DNA hybrid-2", "test": "FRET melting", "setting": "1 µM, DNA 0.2 µM", "measurement": "ΔTm", "value": "16.3 ± 0.7 °C"}
{"SMILES": "C=C(NC(=O)c1csc(-c2nc3c(cc2O)-c2nc(cs2)C(=O)NC(C(C)O)C(=O)NC(=C(C)OC)c2nc(cs2)C(=O)NC2c4nc(cs4)C(=O)NC(COC(=O)c4c5c6c(cccc6n4O)COC(=O)C(OC4CC(C)(O)C(N(C)C)C(C)O4)C2OC5)c2nc-3cs2)n1)C(N)=O (stereo not drawn)", "tested on": "Streptococcus pneumoniae", "test system": "-25, immunocompromised mice, lung", "setting": "2 mg/kg/day thrice daily, 24 h post-dose", "measurement": "lung bacterial load", "value": "6.14 log10 CFU/lung"}
{"SMILES": "COc1ccc(C(=O)CCc2cc(C(CCc3ccc(O)cc3OC)c3ccc(O)cc3)c(O)cc2OC)cc1 (racemic)", "test system": "human blood", "setting": "3 µM, added: A23187", "measurement": "LTB4 level", "value": "3810 ± 1280 pg/mL"}
{"SMILES": "Cc1ncsc1-c1ccc(C(C)NC(=O)C2CC(O)CN2C(=O)C(NC(=O)CCCCCCCCCCN2CCCC(Nc3ncc(Cl)c(Nc4ccccc4S(=O)(=O)C(C)C)n3)C2)C(C)(C)C)cc1 (stereo not drawn)", "tested on": "22Rv1", "test": "RNA-seq, refers to: TMEM86A mRNA", "setting": "concentration not given", "scale": "baseline: DMSO", "measurement": "log2 fold change", "value": -2.44}
{"SMILES": "COC1CN([C@H]2CC[C@H]([C@@]3(C)Oc4c(Cl)cc(C(=O)NCc5c(SC)cc(C)[nH]c5=O)c(C)c4O3)CC2)C1", "test": "RNA-seq, refers to: DNAJB5 mouse homolog", "test system": "mouse, HT-1376 xenograft, whole blood", "setting": "dose not given", "scale": "baseline: vehicle", "measurement": "log2 fold change", "value": 1.27}
{"SMILES": "O=C(N/N=C/c1cc[n+](CC2CC2)c2ccccc12)c1ccc2ccc(C(=O)N/N=C/c3cc[n+](CC4CC4)c4ccccc34)nc2n1", "tested on": "telomeric G4 DNA hybrid-2", "test": "FRET melting", "setting": "1 µM, DNA 0.2 µM", "measurement": "ΔTm", "value": "25.4 ± 0.9 °C"}
{"SMILES": "CC(C)c1ccc(N(C)c2ccc3c(c2)OCC[C@H]3CNc2cnccc2C(=O)O)cc1", "tested on": "CFPAC-1", "test": "cell viability, CellTiter-Glo", "setting": "7 days", "measurement": "IC50", "value": "15.3 nM"}
{"SMILES": "C[n+]1cccc2cc(/C=N/NC(=O)c3cccc(C(=O)N/N=C/c4ccc5c(ccc[n+]5C)c4)c3)ccc21", "tested on": "telomeric G4 DNA hybrid-2", "test": "FRET melting", "setting": "1 µM, DNA 0.2 µM, added: duplex DNA competitor 10 µM", "measurement": "ΔTm", "value": "7.2 ± 0.6 °C"}
{"SMILES": "Nc1ncc(-c2cc(-c3cnn(CC(F)(F)F)c3)ncc2F)nc1C(=O)NC1CNCC(F)C1 (stereo not drawn)", "tested on": "ERBB2", "test": "KINOMEscan", "setting": "1 µM", "scale": "baseline: DMSO control", "measurement": "remaining binding", "value": "100%"}
{"SMILES": "CNS(=O)(=O)Nc1nccc(Cc2c(C)c3ccc(Oc4ncccc4F)cc3oc2=O)c1F", "tested on": "NCI-H1876", "test": "cell viability, CellTiter-Glo", "setting": "7 days", "measurement": "IC50", "value": "> 1000 nM"}
{"SMILES": "C[n+]1ccc(/C=N/NC(=O)c2cncc(C(=O)N/N=C/c3cc[n+](C)c4ccccc34)n2)c2ccccc21", "tested on": "telomeric G4 DNA hybrid-2", "test": "FRET melting", "setting": "1 µM, DNA 0.2 µM, added: duplex DNA competitor 10 µM", "measurement": "ΔTm", "value": "23.7 ± 0.8 °C"}
{"SMILES": "Cn1ncc2cc(-c3cncc(Cl)c3N3CCC4(CCNC4=O)CC3)ccc21", "tested on": "LS174T", "test": "gene expression, microarray, refers to: KRT14 mRNA", "setting": "concentration not given, 4 h", "scale": "baseline: untreated cells", "measurement": "log2 fold change", "value": 3.12}
{"SMILES": "O=C(N/N=C/c1cc[n+](Cc2ccccc2)c2ccccc12)N/N=C/c1cc[n+](Cc2ccccc2)c2ccccc12", "tested on": "telomeric G4 DNA hybrid-2", "test": "FRET melting", "setting": "1 µM, DNA 0.2 µM", "measurement": "ΔTm", "value": "14.2 ± 0.5 °C"}
{"SMILES": "CN1CCC[C@]1(C)/C=C/S(=O)(=O)NC(=O)Nc1c2c(cc3c1CCC3)CCC2", "test system": "human, whole blood ex vivo", "setting": "50 mg twice daily, day 1, 3 h, multiple ascending dose, added: LPS and ATP", "measurement": "IL-18 inhibition", "value": "82.4%"}
{"SMILES": "C[n+]1ccc(/C=N/NC(=O)c2cccc(C(=O)N/N=C/c3cc[n+](C)c4ccccc34)n2)c2ccccc21", "tested on": "telomeric G4 DNA hybrid-2", "test": "FRET melting", "setting": "1 µM, DNA 0.2 µM", "measurement": "ΔTm", "value": "30.6 ± 0.7 °C"}
{"SMILES": "CN1CCCNC(=O)c2cccc(c2)C(=O)NCCCN(C)CCCNc2cccc3c2C(=O)c2cccc(c2C3=O)NCCC1", "tested on": "SAS", "test": "RNA-Seq, refers to: TIAL1 mRNA", "setting": "1 µM, 6 h", "scale": "baseline: untreated cells", "measurement": "log2 fold change", "value": -0.92}
{"SMILES": "C=CC(=O)Nc1cccc(Cn2ncc3cnc(Nc4cnn(CCOC)c4)nc32)c1", "tested on": "human ABL1(F317L)-phosphorylated", "test": "KINOMEscan", "setting": "100 nM", "scale": "baseline: control", "measurement": "binding", "value": "24%"}
{"SMILES": "C[n+]1ccc(/C=N/NC(=O)c2ccc3ccc(C(=O)N/N=C/c4cc[n+](C)cc4)nc3n2)cc1", "tested on": "telomeric G4 DNA hybrid-2", "test": "FRET melting", "setting": "1 µM, DNA 0.2 µM", "measurement": "ΔTm", "value": "10.7 ± 1.5 °C"}
{"SMILES": "COc1cc(O)ccc1CCC(c1ccc(O)cc1)c1cc2c(c(C)c1O)OC(c1ccc(O)cc1)CC2 (mixture of isomers)", "test": "refers to: eicosapentaenoic acid", "test system": "human whole blood", "setting": "0.3 µM, added: Escherichia coli", "measurement": "amount", "value": "75100 ± 16700 pg/mL blood"}
{"note": "Repeated from above:"}
{"SMILES": "COc1cc(O)ccc1CCC(c1ccc(O)cc1)c1cc2c(c(C)c1O)OC(c1ccc(O)cc1)CC2 (mixture of isomers)", "test": "refers to: eicosapentaenoic acid", "test system": "human whole blood", "setting": "0.3 µM, added: Escherichia coli", "measurement": "amount", "value": "75100 ± 16700 pg/mL blood"}
{"SMILES": "CN1CCC[C@]1(C)/C=C/S(=O)(=O)NC(=O)Nc1c2c(cc3c1CCC3)CCC2", "test system": "human, whole blood ex vivo", "setting": "50 mg twice daily, day 1, 3 h, multiple ascending dose, added: LPS and ATP", "measurement": "IL-18 inhibition", "value": "82.4%"}
{"SMILES": "C=C(NC(=O)c1csc(-c2nc3c(cc2O)-c2nc(cs2)C(=O)NC(C(C)O)C(=O)NC(=C(C)OC)c2nc(cs2)C(=O)NC2c4nc(cs4)C(=O)NC(COC(=O)c4c5c6c(cccc6n4O)COC(=O)C(OC4CC(C)(O)C(N(C)C)C(C)O4)C2OC5)c2nc-3cs2)n1)C(N)=O (stereo not drawn)", "tested on": "Streptococcus pneumoniae", "test system": "-25, immunocompromised mice, lung", "setting": "2 mg/kg/day thrice daily, 24 h post-dose", "measurement": "lung bacterial load", "value": "6.14 log10 CFU/lung"}
{"SMILES": "CN1CCCNC(=O)c2cccc(c2)C(=O)NCCCN(C)CCCNc2cccc3c2C(=O)c2cccc(c2C3=O)NCCC1", "tested on": "SAS", "test": "RNA-Seq, refers to: TIAL1 mRNA", "setting": "1 µM, 6 h", "scale": "baseline: untreated cells", "measurement": "log2 fold change", "value": -0.92}
